# Published values gathered from unrelated publications.
# Amino acid sequences for entries named in this document (tags omitted). Residues count along the entry.
# UniProt Q9UBN7, whole entry: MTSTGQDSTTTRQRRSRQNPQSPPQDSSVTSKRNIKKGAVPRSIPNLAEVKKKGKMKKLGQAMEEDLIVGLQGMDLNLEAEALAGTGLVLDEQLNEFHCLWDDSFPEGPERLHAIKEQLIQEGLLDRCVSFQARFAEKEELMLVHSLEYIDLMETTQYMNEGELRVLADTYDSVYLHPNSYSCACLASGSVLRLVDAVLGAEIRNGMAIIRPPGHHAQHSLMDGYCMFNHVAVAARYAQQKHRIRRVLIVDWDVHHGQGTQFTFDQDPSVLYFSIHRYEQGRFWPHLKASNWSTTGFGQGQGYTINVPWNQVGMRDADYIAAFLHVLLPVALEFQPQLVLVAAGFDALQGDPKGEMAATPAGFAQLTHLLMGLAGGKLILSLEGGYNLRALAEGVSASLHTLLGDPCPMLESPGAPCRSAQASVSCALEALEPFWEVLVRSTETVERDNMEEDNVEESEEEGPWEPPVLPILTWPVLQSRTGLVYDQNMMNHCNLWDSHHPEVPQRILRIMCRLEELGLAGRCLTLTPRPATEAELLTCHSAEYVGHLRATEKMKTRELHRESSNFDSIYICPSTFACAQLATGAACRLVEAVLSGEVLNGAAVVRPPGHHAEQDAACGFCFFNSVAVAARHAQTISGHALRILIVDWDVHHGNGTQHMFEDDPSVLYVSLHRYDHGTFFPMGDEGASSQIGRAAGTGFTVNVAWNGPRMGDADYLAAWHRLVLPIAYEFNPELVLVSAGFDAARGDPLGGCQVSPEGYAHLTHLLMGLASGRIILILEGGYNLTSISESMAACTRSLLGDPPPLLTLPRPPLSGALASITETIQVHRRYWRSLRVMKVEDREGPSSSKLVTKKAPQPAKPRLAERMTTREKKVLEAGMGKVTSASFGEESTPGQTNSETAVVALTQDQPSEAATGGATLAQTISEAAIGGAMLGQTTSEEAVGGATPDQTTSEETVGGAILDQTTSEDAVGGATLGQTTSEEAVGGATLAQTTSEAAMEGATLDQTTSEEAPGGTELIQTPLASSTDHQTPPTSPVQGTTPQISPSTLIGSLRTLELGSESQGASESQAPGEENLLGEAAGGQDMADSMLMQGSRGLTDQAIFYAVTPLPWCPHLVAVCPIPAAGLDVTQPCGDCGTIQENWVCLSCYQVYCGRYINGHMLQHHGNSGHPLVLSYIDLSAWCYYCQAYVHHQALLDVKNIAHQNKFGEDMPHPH
# UniProt Q9UDY8, whole entry: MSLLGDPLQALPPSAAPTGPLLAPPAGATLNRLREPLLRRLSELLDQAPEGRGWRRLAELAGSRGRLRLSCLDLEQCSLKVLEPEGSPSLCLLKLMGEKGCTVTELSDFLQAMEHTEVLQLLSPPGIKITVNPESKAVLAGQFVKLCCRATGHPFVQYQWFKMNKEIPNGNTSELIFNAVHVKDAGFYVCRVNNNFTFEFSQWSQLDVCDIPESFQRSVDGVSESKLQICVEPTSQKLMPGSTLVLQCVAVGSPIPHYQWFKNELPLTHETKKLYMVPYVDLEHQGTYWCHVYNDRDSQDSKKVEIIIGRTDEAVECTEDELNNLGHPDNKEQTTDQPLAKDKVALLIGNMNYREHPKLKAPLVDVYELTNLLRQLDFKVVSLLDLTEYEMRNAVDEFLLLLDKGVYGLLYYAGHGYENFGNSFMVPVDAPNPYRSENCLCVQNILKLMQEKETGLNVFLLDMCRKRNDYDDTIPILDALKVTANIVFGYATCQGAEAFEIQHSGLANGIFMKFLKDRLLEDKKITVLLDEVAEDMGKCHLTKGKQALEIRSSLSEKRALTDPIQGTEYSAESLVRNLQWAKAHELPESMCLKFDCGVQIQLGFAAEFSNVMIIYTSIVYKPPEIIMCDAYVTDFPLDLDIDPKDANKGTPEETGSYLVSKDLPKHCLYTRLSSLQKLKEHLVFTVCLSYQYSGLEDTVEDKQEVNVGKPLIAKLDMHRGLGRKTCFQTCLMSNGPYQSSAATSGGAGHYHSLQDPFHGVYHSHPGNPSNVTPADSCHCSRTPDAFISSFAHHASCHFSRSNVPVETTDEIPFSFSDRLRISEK
# UniProt Q9UDY8, 329-566 limits assumed: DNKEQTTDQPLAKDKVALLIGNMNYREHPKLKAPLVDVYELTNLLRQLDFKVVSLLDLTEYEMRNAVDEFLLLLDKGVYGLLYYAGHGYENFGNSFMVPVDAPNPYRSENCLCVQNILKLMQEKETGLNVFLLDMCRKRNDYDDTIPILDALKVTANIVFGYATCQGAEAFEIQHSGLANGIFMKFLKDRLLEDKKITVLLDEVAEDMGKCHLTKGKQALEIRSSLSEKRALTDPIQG
# UniProt Q99797, 36-713 limits assumed: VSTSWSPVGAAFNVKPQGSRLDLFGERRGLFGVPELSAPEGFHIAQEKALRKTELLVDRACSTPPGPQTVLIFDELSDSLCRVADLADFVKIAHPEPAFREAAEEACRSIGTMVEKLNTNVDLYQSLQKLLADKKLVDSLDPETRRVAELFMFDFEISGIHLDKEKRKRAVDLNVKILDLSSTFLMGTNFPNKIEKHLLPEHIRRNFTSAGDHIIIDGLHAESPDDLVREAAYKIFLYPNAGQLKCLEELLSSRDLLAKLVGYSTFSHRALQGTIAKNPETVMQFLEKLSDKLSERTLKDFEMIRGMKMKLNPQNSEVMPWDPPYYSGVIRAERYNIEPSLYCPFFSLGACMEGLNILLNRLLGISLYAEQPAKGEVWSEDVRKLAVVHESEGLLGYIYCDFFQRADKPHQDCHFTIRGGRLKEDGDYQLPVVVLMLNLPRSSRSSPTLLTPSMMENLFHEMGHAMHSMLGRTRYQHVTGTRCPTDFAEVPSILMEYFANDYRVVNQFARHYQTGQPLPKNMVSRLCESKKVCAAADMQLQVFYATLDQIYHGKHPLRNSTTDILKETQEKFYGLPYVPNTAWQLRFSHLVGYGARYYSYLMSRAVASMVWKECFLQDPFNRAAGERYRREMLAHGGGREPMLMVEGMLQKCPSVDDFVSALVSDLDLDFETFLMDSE
# UniProt Q9BY41, whole entry: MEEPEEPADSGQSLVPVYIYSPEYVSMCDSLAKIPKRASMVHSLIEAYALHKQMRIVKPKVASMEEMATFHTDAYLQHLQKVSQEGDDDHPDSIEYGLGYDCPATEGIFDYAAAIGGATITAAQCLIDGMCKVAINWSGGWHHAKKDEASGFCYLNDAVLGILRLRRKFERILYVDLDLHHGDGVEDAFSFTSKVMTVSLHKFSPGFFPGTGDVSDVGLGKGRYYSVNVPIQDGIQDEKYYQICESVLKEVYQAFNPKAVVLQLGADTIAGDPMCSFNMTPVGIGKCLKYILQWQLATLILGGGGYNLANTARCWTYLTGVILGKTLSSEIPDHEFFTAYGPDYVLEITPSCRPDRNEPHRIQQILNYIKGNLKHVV
# UniProt P51452, 28-179 limits assumed: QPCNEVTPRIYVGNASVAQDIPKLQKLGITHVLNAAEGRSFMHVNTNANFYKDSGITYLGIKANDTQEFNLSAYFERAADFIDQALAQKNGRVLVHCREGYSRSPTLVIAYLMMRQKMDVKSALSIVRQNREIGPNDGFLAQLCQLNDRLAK
# UniProt Q99K82, whole entry: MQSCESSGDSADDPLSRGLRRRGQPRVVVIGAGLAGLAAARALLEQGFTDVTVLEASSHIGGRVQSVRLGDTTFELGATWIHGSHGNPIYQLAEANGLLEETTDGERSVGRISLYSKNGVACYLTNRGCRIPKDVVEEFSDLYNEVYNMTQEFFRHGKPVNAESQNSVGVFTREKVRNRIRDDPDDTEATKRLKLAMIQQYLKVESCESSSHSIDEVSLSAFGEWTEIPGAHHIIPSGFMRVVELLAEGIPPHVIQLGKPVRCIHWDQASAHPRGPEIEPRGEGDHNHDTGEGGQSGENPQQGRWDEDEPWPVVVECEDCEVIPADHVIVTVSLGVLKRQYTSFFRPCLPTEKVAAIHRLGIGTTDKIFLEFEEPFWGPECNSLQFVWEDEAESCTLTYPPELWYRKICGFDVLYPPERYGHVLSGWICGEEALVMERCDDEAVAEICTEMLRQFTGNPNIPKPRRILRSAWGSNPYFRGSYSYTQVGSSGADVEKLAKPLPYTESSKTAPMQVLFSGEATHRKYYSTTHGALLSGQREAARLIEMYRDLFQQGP
# UniProt P30419, whole entry: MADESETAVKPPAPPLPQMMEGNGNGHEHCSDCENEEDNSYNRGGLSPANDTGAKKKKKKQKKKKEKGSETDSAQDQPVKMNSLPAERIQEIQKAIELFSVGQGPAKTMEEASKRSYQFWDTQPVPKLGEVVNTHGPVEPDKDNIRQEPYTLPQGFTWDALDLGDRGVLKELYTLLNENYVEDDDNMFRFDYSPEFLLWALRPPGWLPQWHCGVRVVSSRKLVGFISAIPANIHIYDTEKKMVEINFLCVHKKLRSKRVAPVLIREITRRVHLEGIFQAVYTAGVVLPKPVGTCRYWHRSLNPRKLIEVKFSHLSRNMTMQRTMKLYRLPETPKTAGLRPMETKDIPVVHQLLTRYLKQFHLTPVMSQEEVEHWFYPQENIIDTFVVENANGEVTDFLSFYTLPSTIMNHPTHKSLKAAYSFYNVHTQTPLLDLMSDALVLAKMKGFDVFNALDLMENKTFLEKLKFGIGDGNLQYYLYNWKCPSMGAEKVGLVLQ
# UniProt O15379, whole entry: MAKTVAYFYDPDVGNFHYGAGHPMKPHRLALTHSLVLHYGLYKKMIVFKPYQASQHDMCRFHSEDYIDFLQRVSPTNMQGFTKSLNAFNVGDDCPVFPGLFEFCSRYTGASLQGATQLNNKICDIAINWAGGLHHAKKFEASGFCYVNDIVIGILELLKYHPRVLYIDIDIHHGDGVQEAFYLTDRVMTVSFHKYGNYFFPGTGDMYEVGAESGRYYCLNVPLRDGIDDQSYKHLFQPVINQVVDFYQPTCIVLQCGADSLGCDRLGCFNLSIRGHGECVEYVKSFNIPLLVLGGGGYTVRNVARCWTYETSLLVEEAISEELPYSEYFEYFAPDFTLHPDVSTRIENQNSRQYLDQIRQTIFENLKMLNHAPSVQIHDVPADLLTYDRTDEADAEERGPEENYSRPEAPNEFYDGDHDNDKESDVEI
# UniProt Q9Y618, 389-480 partner limits assumed: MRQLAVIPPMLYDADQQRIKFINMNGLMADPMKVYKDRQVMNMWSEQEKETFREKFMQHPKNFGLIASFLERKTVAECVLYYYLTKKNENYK
# UniProt Q9NTG7, whole entry: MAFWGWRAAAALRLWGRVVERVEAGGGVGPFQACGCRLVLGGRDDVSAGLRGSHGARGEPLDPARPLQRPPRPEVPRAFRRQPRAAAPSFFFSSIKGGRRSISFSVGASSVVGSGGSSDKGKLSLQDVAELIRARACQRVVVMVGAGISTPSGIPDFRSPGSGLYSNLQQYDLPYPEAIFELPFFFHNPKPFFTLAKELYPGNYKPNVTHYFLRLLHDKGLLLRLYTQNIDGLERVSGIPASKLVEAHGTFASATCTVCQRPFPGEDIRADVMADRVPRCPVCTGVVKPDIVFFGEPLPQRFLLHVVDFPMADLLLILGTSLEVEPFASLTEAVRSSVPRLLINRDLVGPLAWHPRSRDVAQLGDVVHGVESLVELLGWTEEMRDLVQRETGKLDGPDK
# UniProt Q9NY33, whole entry: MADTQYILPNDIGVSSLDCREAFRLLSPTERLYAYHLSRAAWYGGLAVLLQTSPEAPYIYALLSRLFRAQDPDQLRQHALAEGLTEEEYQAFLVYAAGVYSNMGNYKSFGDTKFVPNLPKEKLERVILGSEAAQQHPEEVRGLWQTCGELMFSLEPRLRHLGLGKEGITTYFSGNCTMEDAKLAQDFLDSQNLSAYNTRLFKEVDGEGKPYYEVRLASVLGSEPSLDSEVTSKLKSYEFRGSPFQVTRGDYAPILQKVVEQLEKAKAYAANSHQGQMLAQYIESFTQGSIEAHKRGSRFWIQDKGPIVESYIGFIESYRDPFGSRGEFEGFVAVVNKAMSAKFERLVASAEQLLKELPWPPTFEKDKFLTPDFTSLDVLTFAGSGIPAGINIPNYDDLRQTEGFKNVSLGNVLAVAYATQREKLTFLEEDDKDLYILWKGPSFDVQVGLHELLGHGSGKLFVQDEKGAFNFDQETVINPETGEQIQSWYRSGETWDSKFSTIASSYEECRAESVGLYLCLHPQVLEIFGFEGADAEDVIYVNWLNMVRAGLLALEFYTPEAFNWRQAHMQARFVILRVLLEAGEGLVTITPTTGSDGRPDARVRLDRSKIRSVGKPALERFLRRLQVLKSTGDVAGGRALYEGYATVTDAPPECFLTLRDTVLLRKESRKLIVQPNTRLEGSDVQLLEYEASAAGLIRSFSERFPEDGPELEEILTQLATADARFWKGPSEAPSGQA
# Lines come from different studies, so protocols differ. Numbers after ± are the reported error.
# Mode: substrate
# HDAC6: Protein deacetylase HDAC6 (HDAC6, Homo sapiens, UniProt Q9UBN7)
# MALT1: Mucosa-associated lymphoid tissue lymphoma translocation protein 1 (MALT1, Homo sapiens, UniProt Q9UDY8)
# MIPEP: Mitochondrial intermediate peptidase (MIPEP, Homo sapiens, UniProt Q99797)
# HDAC8: Histone deacetylase 8 (HDAC8, Homo sapiens, UniProt Q9BY41)
# OGA: Protein O-GlcNAcase (OGA, Homo sapiens, UniProt O60502)
# DUSP3: Dual specificity protein phosphatase 3 (DUSP3, Homo sapiens, UniProt P51452)
SMILES,target,assay,conditions,Km
CC(=O)NCCCC[C@H](NC(=O)CNC(=O)[C@H](CCCNC(=N)N)NC(C)=O)C(=O)N[C@@H](Cc1c[nH]c2ccccc12)C(N)=O,HDAC6,,25 °C,60 ± 30 µM
CC(=O)N[C@@H](CC(C)C)C(=O)N[C@H](C(=O)N[C@@H](CO)C(=O)N[C@@H](CCCNC(=N)N)C(=O)Nc1ccc2c(CC(N)=O)cc(=O)oc2c1)C(C)C,MALT1,fluorogenic peptide hydrolysis,"pH 7.5, catalytic domain, sodium citrate 0.9 M",8.9 µM
CC(C)C[C@H](NC(=O)[C@@H]1CCCN1C(=O)[C@H](CCC(N)=O)NC(=O)c1ccccc1N)C(=O)N[C@@H](CCC(N)=O)C(=O)N[C@@H](CC(N)=O)C(=O)N[C@@H](CCCCN)C(=O)N[C@H](C(=O)N[C@@H](CCC(N)=O)C(=O)NCCNc1ccc([N+](=O)[O-])cc1[N+](=O)[O-])C(C)C,MIPEP,FRET peptide hydrolysis,,2.9 µM
NCCCNCCCCNCCCNCc1ccc2ccccc2c1,"Smox (Mus musculus, UniProt Q99K82)",Amplex Red/HRP,"pH 7.5, 37 °C",15 ± 5 µM
CC(=O)N[C@@H](C)C(=O)N[C@@H](CC(C)C)C(=O)N[C@H](C(=O)N[C@@H](CO)C(=O)N[C@@H](CCCNC(=N)N)C(=O)Nc1ccc2c(CC(N)=O)cc(=O)oc2c1)C(C)C,MALT1,fluorogenic peptide hydrolysis,"20 min preincubation, pH 7.5, 37 °C, enzyme 399 nM, citrate 0.9 M",7.1 µM
CC(=O)NCCCC[C@H](NC(C)=O)C(=O)Nc1ccc2c(C)cc(=O)oc2c1,HDAC8,,25 °C,4200 ± 1700 µM
N=C(N)NCCC[C@H](NC(=O)[C@H](Cc1ccc(O)cc1)NC(=O)[C@H](Cc1c[nH]cn1)NC(=O)[C@H](CCCNC(=N)N)NC(=O)[C@H](CO)NC(=O)[C@H](CCC(=O)O)NC(=O)[C@H](CCCNC(=N)N)NC(=O)CN)C(=O)O,"Glycylpeptide N-tetradecanoyltransferase 1 (NMT1, Homo sapiens, UniProt P30419)",,,< 0.1 µM
C[C@H](NC(=O)[C@H](CCCCN)NC(=O)CNC(=O)CNC(=O)[C@@H](NC(=O)[C@@H](NC(=O)[C@H](Cc1c[nH]c2ccccc12)NC(=O)c1ccccc1N)[C@@H](C)O)[C@@H](C)O)C(=O)N[C@@H](CCCCNc1ccc([N+](=O)[O-])cc1[N+](=O)[O-])C(N)=O,MIPEP,FRET peptide hydrolysis,,6.2 µM
CC(=O)NCCCC[C@H](NC(=O)[C@H](CCCCNC(C)=O)NC(=O)[C@H](Cc1c[nH]cn1)NC(=O)[C@H](CCCNC(=N)N)NC(C)=O)C(N)=O,HDAC6,,25 °C,370 ± 150 µM
CCC(=O)NCCCC[C@H](NC(=O)CNC(=O)[C@H](CC(C)C)NC(C)=O)C(=O)Nc1ccc2c(C)cc(=O)oc2c1,"Histone deacetylase 3/Nuclear receptor corepressor 2 (HDAC3/NCoR2) (Homo sapiens, UniProt O15379+Q9Y618)",fluorogenic trypsin-coupled,"pH 7.4, 25 °C",< 10 µM
CC(=O)N[C@H]1[C@H](OC[C@H](NC(=O)[C@H](Cc2ccc(O)cc2)NC(=O)[C@@H]2CCCN2C(C)=O)C(=O)N[C@@H](CO)C(=O)N[C@@H](C)C(N)=O)O[C@H](CO)[C@@H](O)[C@@H]1O,OGA,,"pH 7.5, 37 °C, together with: 4MU-GlcNAc 200 µM competition",6300 ± 500 µM
CC(=O)N[C@@H](CCC(N)=O)C(=O)N[C@H](C(=O)N[C@@H](C)C(=O)N[C@@H](CCCNC(=N)N)C(=O)N[C@@H](CCCCNC(=O)CCc1ccc(N=Nc2ccc(N(C)C)cc2)cc1)C(=O)N[C@@H](CO)C(=O)N[C@H](C(=O)NCC(=O)NCC(=O)NCCCNC(=S)Nc1ccc2c(c1)C(=O)OC21c2ccc(O)cc2Oc2cc(O)ccc21)[C@@H](C)O)[C@@H](C)O,"NAD-dependent protein deacetylase sirtuin-3, mitochondrial (SIRT3, Homo sapiens, UniProt Q9NTG7)","enzyme activity, plate reader kinetics","60 nM enzyme, together with: 500 µM NAD+",7.7 ± 0.21 µM
CC(=O)N[C@@H](Cc1c[nH]cn1)C(=O)N[C@H](C(=O)NCC(=O)N[C@@H](Cc1ccccc1)C(=O)N[C@@H](CC(C)C)C(=O)N[C@H](C(=O)N[C@@H](CCC(=O)O)C(=O)N[C@@H](Cc1cc(=O)oc2cc(OP(=O)(O)O)ccc12)C(=O)N[C@H](C(=O)N[C@@H](C)C(=O)N[C@H](C(=O)N[C@@H](CCCNC(=N)N)C(=O)N[C@@H](Cc1c[nH]c2ccccc12)C(N)=O)[C@@H](C)O)C(C)C)[C@@H](C)O)[C@@H](C)O,DUSP3,peptide hydrolysis,"pH 6.0, 37 °C, 250 nM enzyme, together with: ERK activation-loop peptide",47.6 µM
CC(C)C[C@H](NC(=O)[C@H](CCC(N)=O)NC(=O)[C@@H](NC(=O)[C@H](CCCCN)NC(=O)[C@H](CC(N)=O)NC(=O)[C@H](CCC(N)=O)NC(=O)[C@H](CC(C)C)NC(=O)[C@@H]1CCCN1C(=O)[C@H](CCC(N)=O)NC(=O)CNC(=O)[C@H](CO)NC(=O)[C@H](CCCNC(=N)N)NC(=O)[C@H](Cc1ccccc1)NC(=O)c1ccccc1N)C(C)C)C(=O)N[C@@H](CCC(N)=O)C(=O)NCCNc1ccc([N+](=O)[O-])cc1[N+](=O)[O-],MIPEP,FRET peptide hydrolysis,,0.941 µM
CC(=O)N[C@@H](CC(C)C)C(=O)N[C@@H](CCCNC(=N)N)C(=O)N[C@@H](CO)C(=O)N[C@@H](CCCNC(=N)N)C(=O)Nc1ccc2c(C(F)(F)F)cc(=O)oc2c1,MALT1,fluorogenic peptide hydrolysis,"20 min preincubation, pH 7.5, 37 °C, enzyme 399 nM, citrate 0.9 M",37.4 µM
CC(C)C[C@H](NC(=O)[C@@H]1CCCN1C(=O)[C@H](CCC(N)=O)NC(=O)c1ccccc1N)C(=O)N[C@@H](CCC(N)=O)C(=O)N[C@@H](C)C(=O)N[C@@H](CCCCN)C(=O)N[C@H](C(=O)N[C@@H](CCC(N)=O)C(=O)NCCNc1ccc([N+](=O)[O-])cc1[N+](=O)[O-])C(C)C,MIPEP,FRET peptide hydrolysis,,3.2 µM
CC(=O)N[C@@H](CC(C)C)C(=O)N[C@@H](CCCNC(=N)N)C(=O)N[C@@H](CO)C(=O)N[C@@H](CCCNC(=N)N)C(=O)Nc1ccc2c(CC(N)=O)cc(=O)oc2c1,MALT1,fluorogenic peptide hydrolysis,"pH 7.5, catalytic domain, sodium citrate 0.9 M",12.6 µM
CC(=O)N[C@H]1[C@H](OC[C@H](NC(=O)[C@H](Cc2ccc(O)cc2)NC(C)=O)C(=O)N[C@@H](CO)C(N)=O)O[C@H](CO)[C@@H](O)[C@@H]1O,OGA,,"pH 7.5, 37 °C, together with: 4MU-GlcNAc 200 µM competition",2200 ± 100 µM
Cc1cc(=O)oc2cc(NC(=O)[C@H](Cc3ccc(O)cc3)NC(=O)[C@@H](NC(=O)[C@H](CC(C)C)NC(=O)[C@H](CC(C)C)NC(=O)CCC(=O)O)C(C)C)ccc12,"Proteasome Macropain subunit MB1 (PSMB5, Homo sapiens, UniProt P28074)",chymotrypsin-like activity,"pH 7.8, 37 °C, together with: oligomeric Aβ(1-42) 0.5 µM",8.4 ± 1.3 µM
CC(=O)N[C@@H](CC(C)C)C(=O)N[C@@H](CCCNC(=N)N)C(=O)N[C@@H](CO)C(=O)N[C@@H](CCCNC(=N)N)C(=O)Nc1ccc2c(C)cc(=O)oc2c1,MALT1,fluorogenic peptide hydrolysis,"20 min preincubation, pH 7.5, 37 °C, enzyme 399 nM, citrate 0.9 M",34.5 µM
CC(=O)NCCCC[C@H](NC(=O)CNC(=O)[C@H](CCCNC(=N)N)NC(C)=O)C(=O)Nc1ccc2c(C)cc(=O)oc2c1,HDAC6,,25 °C,11 ± 3 µM
CC(C)[C@H](NC(=O)c1ccccc1N)C(=O)N[C@@H](C)C(=O)N[C@@H](C)C(=O)N[C@@H](CCC(N)=O)C(=O)N[C@H](C(=O)N[C@@H](CCCCN)C(=O)N[C@H](C(=O)N[C@@H](CCCCNc1ccc([N+](=O)[O-])cc1[N+](=O)[O-])C(N)=O)[C@@H](C)O)[C@@H](C)O,MIPEP,FRET peptide hydrolysis,,10 µM
CC(=O)NCCCC[C@H](NC(C)=O)C(N)=O,HDAC6,,25 °C,800 ± 300 µM
CC[C@H](C)[C@H](NC(=O)[C@H](Cc1ccc(O)cc1)NC(=O)[C@@H](NC(=O)[C@H](CCCNC(=N)N)NC(=O)[C@@H](N)CC(=O)O)C(C)C)C(=O)N[C@@H](Cc1cnc[nH]1)C(=O)N1CCC[C@H]1C(=O)O,"Dipeptidyl peptidase 3 (DPP3, Homo sapiens, UniProt Q9NY33)",radiolabelled substrate hydrolysis,"37 °C, together with: 0.5 nM iodinated substrate",12 ± 2 µM
CC(=O)NCCCC[C@H](NC(=O)CNC(=O)[C@H](CCCNC(=N)N)NC(C)=O)C(N)=O,HDAC6,,25 °C,600 ± 200 µM
CC(=O)N[C@@H](Cc1c[nH]cn1)C(=O)N[C@H](C(=O)NCC(=O)N[C@@H](Cc1ccccc1)C(=O)N[C@@H](CC(C)C)C(=O)N[C@H](C(=O)N[C@@H](CCC(=O)O)C(=O)N[C@@H](Cc1cc(=O)oc2cc(OP(=O)(O)O)ccc12)C(=O)N[C@H](C(=O)N[C@@H](C)C(=O)N[C@H](C(=O)N[C@@H](CCCNC(=N)N)C(=O)N[C@@H](Cc1c[nH]c2ccccc12)C(N)=O)[C@@H](C)O)C(C)C)[C@@H](C)OP(=O)(O)O)[C@@H](C)O,DUSP3,peptide hydrolysis,"pH 6.0, 37 °C, 250 nM enzyme, together with: ERK activation-loop peptide",48.9 µM
CC(=O)NCCCC[C@H](NC(C)=O)C(=O)N[C@@H](Cc1c[nH]c2ccccc12)C(N)=O,HDAC8,,25 °C,> 5000 µM
CC(C)[C@H](NC(=O)[C@@H](NC(=O)[C@@H](NC(=O)[C@H](CCCCN)NC(=O)[C@H](CO)NC(=O)[C@H](CO)NC(=O)[C@H](Cc1ccccc1)NC(=O)c1ccccc1N)[C@@H](C)O)[C@@H](C)O)C(=O)N[C@@H](CCCCNc1ccc([N+](=O)[O-])cc1[N+](=O)[O-])C(N)=O,MIPEP,FRET peptide hydrolysis,,1.3 µM
